Measured values gathered from unrelated publications.
Lines come from different studies, so protocols differ. Values joined by “and” are separate records of one study, mostly repeats; a detail may differ. ± marks the error that the study gave. Converted amounts (≈) assume the structure as drawn.

COc1cc(O)ccc1CCC(c1ccc(O)cc1)c1cc2c(c(C)c1O)OC(c1ccc(O)cc1)CC2 (mixture of isomers) — result for “lipid mediator level”: 887 ± 418 pg/mL blood (item: PGE2; human blood; 3 µM, added: Escherichia coli stimulation).
With Fc1ccc(Nc2nc(NC3CCCCC3)c3cc(C(F)(F)F)ccc3n2)cc1F the pIC50 was 6.4 (β2AR/β1AR ECL2 chimera; β-arrestin2 recruitment, antagonist, BRET; added: isoprenaline 1 µM).
COc1cc2c(NC3CCN(C(C)C)CC3)cc(N3CCOCC3)nc2cc1OCCCN1CCCC1 — result for “normalised protein abundance”: 0.0729 and 0.0238 and 0.0279 and 0.0329 and 0.0438 and -0.00652 and 0.0512 and 0.00905 (TMT quantitative proteomics, item: GMFB; 5xFAD mice, hippocampus; dose not given).
With C=CC(=O)N1[C@@H](c2ccc3c(c2)OCO3)c2[nH]c3ccccc3c2C[C@H]1C(=O)N1CCN(C)CC1 the relative co-enrichment was 96% (human cyclin E1 wild type-3xFLAG:CDK2; co-IP with TMT proteomics, item: PUF60; concentration not given, Q9UHX1; baseline: wild type DMSO).
Cc1ncsc1-c1ccc(C(C)NC(=O)C2CC(O)CN2C(=O)C(NC(=O)CCCCCCCCCCN2CCCC(Nc3ncc(Cl)c(Nc4ccccc4S(=O)(=O)C(C)C)n3)C2)C(C)(C)C)cc1 (stereo not shown): “log2 fold change” -1.34 (22Rv1; RNA-seq, item: WBP1L mRNA; concentration not given; baseline: DMSO).
CNS(=O)(=O)Nc1nccc(Cc2c(C)c3ccc(Oc4ncccc4F)cc3oc2=O)c1F has an IC50 of 10.1 nM (HMC-1-8; cell viability, CellTiter-Glo; 7 days).
With COc1ccccc1-c1ccncc1C(=O)Nc1nnc(OCc2ccc(Cl)cc2)s1 the colony count was 54.5 and 60 and 50 (DLD-1 BRCA2-/-; 0.06 µM, mean of replicates).
CCN(CC)CC(=O)Nc1cccc(-n2cc(-c3ccc4ccc(-c5cn(-c6cccc(NC(=O)CN(CC)CC)c6)nn5)cc4c3)nn2)c1 gave a fold regulation of -1.33 (RCC4; PCR angiogenesis array, item: ANGPT2; 5 x IC50, 6 h, normoxia; baseline: untreated).
COC1CN([C@H]2CC[C@H]([C@@]3(C)Oc4c(Cl)cc(C(=O)NCc5c(SC)cc(C)[nH]c5=O)c(C)c4O3)CC2)C1 — result for “log2 fold change”: 2.18 (RNA-seq, item: PDZD3 mouse homolog; mouse, HT-1376 xenograft, whole blood; dose not given; baseline: vehicle).
With C=C(NC(=O)c1csc(-c2nc3c(cc2O)-c2nc(cs2)C(=O)NC(C(C)O)C(=O)NC(=C(C)OC)c2nc(cs2)C(=O)NC2c4nc(cs4)C(=O)NC(COC(=O)c4c5c6c(cccc6n4O)COC(=O)C(OC4CC(C)(O)C(N(C)C)C(C)O4)C2OC5)c2nc-3cs2)n1)C(N)=O (stereo not shown) the MIC50 was 0.0156 µg/mL (≈ 0.0109 µM) (Enterococcus faecium; agar dilution; vancomycin-intermediate, 25 isolates).
Nc1ncc(-c2cc(-c3cnn(CC(F)(F)F)c3)ncc2F)nc1C(=O)NC1CNCC(F)C1 (stereo not shown) has a remaining binding of 61% (MAP4K4; KINOMEscan; 1 µM; baseline: DMSO control).
With COC1OC(C)C(O)C(OC2OC(C)C(O)C(OC3OC(C)C(O)C(OC4OC(C)C(O)C(OC5OC(C)C(O)C(OC6OC(C)C(O)C(OS(=O)(=O)O)C6OS(=O)(=O)O)C5OS(=O)(=O)O)C4OS(=O)(=O)O)C3OS(=O)(=O)O)C2OS(=O)(=O)O)C1OS(=O)(=O)O (stereo not shown) the thrombin time was 10.6 ± 0.9 s (human plasma; 128 µg/mL).
Cn1ncc2cc(-c3cncc(Cl)c3N3CCC4(CCNC4=O)CC3)ccc21 — result for “log2 fold change”: -1.2 (LS174T; gene expression, microarray, item: SLC40A1 mRNA; concentration not given, 4 h; baseline: untreated cells).
With COC1OC(C)C(OS(=O)(=O)O)C(OC2OC(C)C(OS(=O)(=O)O)C(OS(=O)(=O)O)C2OS(=O)(=O)O)C1OS(=O)(=O)O (stereo not shown) the thrombin time was 10.1 ± 0.5 s (human plasma; 128 µg/mL).
c1ccc(-c2n[nH]cc2-c2ccnc3ccccc23)nc1: “log2 fold change” 0.03 (VPS15 (Candida albicans); kinase binding, MIB/MS competition; Candida albicans lysate; 1 µM; baseline: DMSO).
The colony count of CO[C@@H]1[C@@H](OC(N)=O)[C@@H](O)[C@H](Oc2ccc3c(O)c(NC(=O)c4ccc(O)c(CC=C(C)C)c4)c(=O)oc3c2C)OC1(C)C is reported as 19 (HCT-116 parental; 75 µM, replicate 1).
For COC1OC(C)C(OC2OC(C)C(OS(=O)(=O)O)C(OC3OC(C)C(OC4OC(C)C(OS(=O)(=O)O)C(OS(=O)(=O)O)C4O)C(OS(=O)(=O)O)C3O)C2O)C(OS(=O)(=O)O)C1O (stereo not shown), “thrombin time prolongation” read 0.9 fold (human plasma; 128 µg/mL; baseline: control).
CN1CCCNC(=O)c2cccc(c2)C(=O)NCCCN(C)CCCNc2cccc3c2C(=O)c2cccc(c2C3=O)NCCC1: “log2 fold change” 1.38 (SAS; RNA-Seq, item: ZSWIM4 mRNA; 1 µM, 6 h; baseline: untreated cells).
Under “thrombin time prolongation”, COC1OC(C)C(O)C(OC2OC(C)C(O)C(OC3OC(C)C(O)C(OC4OC(C)C(O)C(OC5OC(C)C(O)C(OC6OC(C)C(O)C(OC7OC(C)C(O)C(OC8OC(C)C(O)C(OS(=O)(=O)O)C8OS(=O)(=O)O)C7OS(=O)(=O)O)C6OS(=O)(=O)O)C5OS(=O)(=O)O)C4OS(=O)(=O)O)C3OS(=O)(=O)O)C2OS(=O)(=O)O)C1OS(=O)(=O)O (stereo not shown) is recorded as 1 fold (human plasma; 128 µg/mL; baseline: control).
Under “percent of control”, C=CC(=O)Nc1cccc(Cn2ncc3cnc(Nc4cnn(CCOC)c4)nc32)c1 is recorded as 96% (SGK3 human; binding, KINOMEscan; 100 nM; lower = stronger binding).
With Cc1cccc2c1N(C(=O)n1ccnn1)CC2 the germination rate was 68.9% (Arabidopsis thaliana; kai2 mutant; 1 µM, 72 h).
For COC1OC(C)C(OS(=O)(=O)O)C(OC2OC(C)C(OS(=O)(=O)O)C(OC3OC(C)C(OS(=O)(=O)O)C(OC4OC(C)C(OS(=O)(=O)O)C(OC5OC(C)C(OS(=O)(=O)O)C(OC6OC(C)C(OS(=O)(=O)O)C(OC7OC(C)C(OS(=O)(=O)O)C(OC8OC(C)C(OS(=O)(=O)O)C(OC9OC(C)C(OS(=O)(=O)O)C(OC%10OC(C)C(OS(=O)(=O)O)C(OC%11OC(C)C(OS(=O)(=O)O)C(OS(=O)(=O)O)C%11O)C%10O)C9O)C8O)C7O)C6O)C5O)C4O)C3O)C2O)C1O (stereo not shown), the thrombin time was 10.1 ± 0.8 s (human plasma; 128 µg/mL).
